Published values pooled from the literature.
Protocols differ between the studies behind these lines. “And” joins repeats or separate records; there may be more than shown. Numbers after ± are the reported error.

Compound | assay | test system | conditions | scale | endpoint | result
Cc1ncc2n1-c1ccc(Cl)cc1C(c1ccccc1F)=NC2 | – | healthy humans | oral, dose not given | – | nervous system adverse events | 21.7%
COc1cc2c(Oc3ccc4[nH]c(C)cc4c3F)ccnc2cc1OCC1(N)CC1 | – | paediatric recurrent refractory sarcoma | 8 mg | – | grade 1 or 2 influenza-like symptoms | 0%
CCCCCCCCCCC(=O)O[C@H]1CC[C@H]2[C@@H]3CCC4=CC(=O)CC[C@]4(C)[C@H]3CC[C@]12C | – | human male serum | 500 ng/mL, NaF 25.0 mg/mL, baseline testosterone 441 ng/dL | – | testosterone level | 454 ng/dL
O=C1c2c(O)c(=O)ccn2N([C@@H]2c3ccccc3SCc3c2ccc(F)c3F)[C@@H]2COCCN12 | – | BALB/c mice, plasma | oral, 50 mg/kg baloxavir marboxil, 1 h | – | plasma concentration | 249 ng/mL
O=c1ccn([C@@H]2O[C@](F)(CO)[C@@H](O)[C@H]2O)c(=O)[nH]1 | – | guinea pig | oral | – | oral bioavailability | 24 to 87%
CN1CC[C@]23c4c5ccc(O)c4O[C@H]2[C@@H](O[C@@H]2O[C@H](C(=O)O)[C@@H](O)[C@H](O)[C@H]2O)C=C[C@H]3[C@H]1C5 | – | rat, whole blood | 1000 nM, 4 months, -80 °C, long-term storage | – | stability bias | -7.26%
Cc1ncc2n1-c1ccc(Cl)cc1C(c1ccccc1F)=NC2 | – | wild-type mice, plasma | intravenous, 0.3 mg/kg, with: 3-day vehicle | – | clearance | 393 ± 18 mL/min
COC(=O)[C@H]1[C@@H](OC(=O)c2ccccc2)C[C@@H]2CC[C@H]1N2C | – | rat, whole blood | 10 nM, 4 freeze-thaw cycles | – | stability bias | -3.83%
CN1CC[C@]23c4c5ccc(O)c4O[C@H]2[C@@H](O)CC[C@@]3(O)[C@H]1C5 | PAMPA-BBB | porcine brain lipid | 500 µM, 4 h, pH 7.4, 1% DMSO | – | Papp | 5.1 ×10⁻⁶ cm/s
COc1ccc2c(c1)[C@]13CCCC[C@@H]1[C@H](C2)N(C)CC3 | – | fresh human whole blood | 1 µM, pH 7.4 | – | blood-to-plasma ratio | 1.3
CN1CC[C@]23c4c5ccc(O)c4O[C@H]2[C@@H](O)CC[C@H]3[C@H]1C5 | PAMPA-BBB | porcine brain lipid | 500 µM, 4 h, pH 7.4, 1% DMSO | – | Papp | 3.4 ×10⁻⁶ cm/s
Cc1ncc2n1-c1ccc(Cl)cc1C(c1ccccc1F)=NC2 | – | healthy volunteers, plasma | oral, 5 mg single dose, day 1, given alone | – | AUC(0-last) | 95.9 ng·h/mL
CC(=O)Oc1ccc2c3c1O[C@H]1[C@@H](OC(C)=O)C=C[C@H]4[C@@H](C2)N(C)CC[C@@]341 | – | rat, whole blood | 500 nM, 4 months, -80 °C, long-term storage | – | stability bias | -5.6%
C#Cc1ccc2c(c1)C(c1ccccn1)=NCc1c(-c3cnco3)ncn1-2.Cl | thermodynamic equilibrium, UV | isopropanol | 24 h, 25 °C | – | solubility | 4040 µg/mL
CC(=O)O[C@H]1C=C[C@H]2[C@H]3Cc4ccc(O)c5c4[C@@]2(CCN3C)[C@H]1O5 | – | rat, whole blood | 10 nM, 4 h, room temperature, bench-top storage | – | stability bias | 10%
CCCCCCC(C)(C)c1ccc([C@@H]2C[C@H](O)CC[C@H]2CCCO)c(O)c1 | – | mouse | intraperitoneal, 0.3 mg/kg | direction not given | conditioned place preference score | -112 and -28.7 and -212 and -27.7 and -57.9 and -238 and -37.5 and -4.25
COC(=O)[C@@H]1[C@H]2CC[C@@H](C[C@@H]1O)N2C | – | rat, whole blood | 10 nM, 4 freeze-thaw cycles | – | stability bias | 0.67%
CCC(CC)COC(=O)[C@H](C)N[P@](=O)(OC[C@H]1O[C@@](C#N)(c2ccc3c(N)ncnn23)[C@H](O)[C@@H]1O)Oc1ccccc1 | – | human | dose not given, CYP3A induction, with: carbamazepine | – | change in exposure | ≤ 20%

For quick reference, copied from above:
Compound | assay | test system | conditions | scale | endpoint | result
CN1CC[C@]23c4c5ccc(O)c4O[C@H]2[C@@H](O[C@@H]2O[C@H](C(=O)O)[C@@H](O)[C@H](O)[C@H]2O)C=C[C@H]3[C@H]1C5 | – | rat, whole blood | 1000 nM, 4 months, -80 °C, long-term storage | – | stability bias | -7.26%
